Experimental data gathered from unrelated publications.
“And” joins repeats or separate records; there may be more than shown. Numbers after ± are the reported error.
TDP1: Tyrosyl-DNA phosphodiesterase 1 (TDP1, Homo sapiens, UniProt Q9NUW8)
UniProt Q9NUW8, sequence (whole entry, looked up): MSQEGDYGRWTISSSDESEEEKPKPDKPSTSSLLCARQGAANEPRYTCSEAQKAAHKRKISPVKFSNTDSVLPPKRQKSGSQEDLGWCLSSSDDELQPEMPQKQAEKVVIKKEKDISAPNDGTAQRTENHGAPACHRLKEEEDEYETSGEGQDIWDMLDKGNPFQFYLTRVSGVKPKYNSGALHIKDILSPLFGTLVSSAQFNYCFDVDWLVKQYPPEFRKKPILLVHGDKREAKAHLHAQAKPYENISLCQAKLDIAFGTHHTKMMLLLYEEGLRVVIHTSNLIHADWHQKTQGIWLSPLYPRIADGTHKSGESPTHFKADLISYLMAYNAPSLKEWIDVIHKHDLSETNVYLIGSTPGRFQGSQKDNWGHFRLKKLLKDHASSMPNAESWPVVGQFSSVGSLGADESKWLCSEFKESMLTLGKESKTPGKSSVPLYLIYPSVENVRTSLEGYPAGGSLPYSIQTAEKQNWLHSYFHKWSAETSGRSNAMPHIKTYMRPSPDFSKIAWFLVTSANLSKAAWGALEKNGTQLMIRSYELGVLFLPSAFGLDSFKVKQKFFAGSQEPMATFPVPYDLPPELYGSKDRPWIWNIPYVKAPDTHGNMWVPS

C=CC(=O)N1CCCC(n2c(=O)c3ncccc3n(Cc3ccc(Oc4ccccc4)cc3)c2=O)C1 (stereo not shown)  compound remaining (metabolic stability; male Sprague-Dawley rat, hepatocytes; 1 µM, 1 h): 0.5%
CN(O)C(=O)CCC(=O)NCCCN(CCCCN(CCCNC(=O)CCC(=O)N(C)O)C(=O)CCC(=O)N(C)O)C(=O)CCC(=O)N(C)O.[89Zr]  intact complex (human plasma; 5 d, 37 °C): 100%
CN(C)C(=O)c1cncc(N2Cc3cn(Cc4ccc(F)cc4)nc3C2)n1  Papp A→B (MDCK-MDR1): 18.9 ×10⁻⁶ cm/s
CN(C)c1ccc(C=NOCc2ccc3nc(-c4ccccc4)c(Nc4ccc(C(=O)O)cc4)n3c2)cc1  inhibition (TDP1; enzyme activity, inhibitor; 100 µM, unpurified compound): 62.9%
C=CC(=O)Nc1cc(Nc2nccc(-c3c[nH]c4ccccc34)n2)c(OC)cc1N(C)CCN(C)C  recovery (storage stability; human plasma; 10 d, on ice, MQC level): 61.1%
O=S1(=O)CC2CCCCC2CS1 (stereo not shown)  solubility (phase solubility, NMR; water; 25 °C, together with: hydroxypropyl-β-cyclodextrin 631 mM): 73 mM
O=C(Nc1cnccc1-c1ccc([18F])nc1)c1ccnc(NC(=O)C2CC2)c1  SUV (FVB/NJ mice (both sexes), feces; intravenous, dose not given, 120 min): 2.02
O=C(O)CCCOc1ccc([18F])cc1-c1cc(-c2ccccc2C(F)(F)F)n(-c2ccccc2)n1  absorbed dose (OLINDA/EXM from mouse data; human adults, ovaries): 11.6 µGy/MBq
CN([O-])C(=O)CN1CCNCCN(CC(=O)N(C)[O-])CC1.[89Zr+4]  tracer uptake (mouse, spleen; intravenous, 1 h): 0.19 %ID/g
O=S(=O)(NCc1ccncc1)c1ccc(C2CCCCC2)cc1  open field speed change (wild-type littermate mouse; 0.3 mg/kg; relative to: vehicle): 3 ± 1 cm/s
CN1CCC[C@]1(C)/C=C/S(=O)(=O)NC(=O)Nc1c2c(cc3c1CCC3)CCC2  subjects with adverse event (refers to: alanine aminotransferase increased, probably related; human; oral, 100 mg twice daily, 14 days, multiple ascending dose): 33.3%
CCc1cnc(NC(=O)c2cc(S(=O)(=O)N3CCOCC3)ccc2N(C)C2CCCC2)s1  Basophils absolute count (mouse, blood; 10 mg/kg, 3 doses): 0 µL⁻¹
COc1cccc(OC)c1-c1cc(C(=O)NC2(C(=O)O)C3CC4CC(C3)CC2C4)nn1-c1ccc(C(=O)N(C)CCCN(C)C(=O)[C@H](CCCCNC(=O)[C@H](CC(C)C)NC(=O)C2OC2C(=O)O)NC(=O)CN2CCN(CC(=O)[O-])CCN(CC(=O)[O-])CCN(CC(=O)[O-])CC2)cc1C(C)C.[177Lu+3] (mixture of isomers)  tumour-to-spleen ratio (mouse HT-29 xenograft; 168 h, biodistribution; relative to: tumour over spleen): 2.17
CCCCN1C(=O)c2cccc3c(NCCCCCCCCN4CCOCC4)ccc(c23)C1=O  emission maximum (methanol): 541 nm
CC(C)[C@H](NC(=O)[C@H](Cc1c[nH]c2ccccc12)NC(=O)[C@H](CCCNC(=N)N)NC(=O)[C@H](CCCNC(=N)N)NC(=O)[C@@H](NC(=O)[C@@H](NC(=O)[C@H](CCCNC(=N)N)NC(=O)[C@@H](NC(=O)[C@@H](NC(=O)[C@H](CCCNC(=N)N)NC(=O)[C@H](CCCNC(=N)N)NC(=O)[C@@H](NC(=O)[C@H](Cc1c[nH]c2ccccc12)NC(=O)[C@H](CCCNC(=N)N)NC(=O)[C@H](CCCNC(=N)N)NC(=O)[C@@H](NC(=O)[C@H](CCCNC(=N)N)NC(=O)[C@H](CCCNC(=N)N)NC(=O)[C@@H](NC(=O)[C@H](Cc1c[nH]c2ccccc12)NC(=O)[C@H](CCCNC(=N)N)NC(=O)[C@@H](N)CCCNC(=N)N)C(C)C)C(C)C)C(C)C)C(C)C)C(C)C)C(C)C)C(C)C)C(=O)N[C@@H](CCCNC(=N)N)C(=O)N[C@@H](CCCNC(=N)N)C(=O)O  specific gravity (dipstick; CD1 mouse, urine; intravenous, 15 mg/kg, 6 h, [14C]-labelled compound): 1.01 g/mL
CC(=O)N1CCN(C(=O)c2ccc(Nc3nccc(-c4ccc(Cl)cc4)n3)cc2)CC1  body weight (NSG mice; dose not given, day 4): 24.9 g and 25 g and 26 g and 23.6 g
C/C(N)=N/C(=N\S(=O)(=O)c1ccc(C(F)(F)F)cc1)N1C[C@H](c2ccccc2)C(c2ccc(Cl)cc2)=N1  Cmax (beagle dog, plasma; oral, 12 mg/kg): 1520 ng/mL
C=C(NC(=O)c1csc(-c2nc3c(cc2O)-c2nc(cs2)C(=O)NC(C(C)O)C(=O)NC(=C(C)OC)c2nc(cs2)C(=O)NC2c4nc(cs4)C(=O)NC(COC(=O)c4c5c6c(cccc6n4O)COC(=O)C(OC4CC(C)(O)C(N(C)C)C(C)O4)C2OC5)c2nc-3cs2)n1)C(N)=O (stereo not shown)  AUC(0-last) (Sprague-Dawley rat, both sexes, plasma; intravenous infusion, 2 mg/kg single dose): 855 ± 150 ng·h/mL
Cc1cc(-c2ccc(C(=O)[C@@H]3CCCC[C@H]3C(=O)Nc3cnn4c3C(=O)NCC4)cc2)[nH]n1  cumulative recovery of radioactivity (human, urine; oral, 200 mg, 0-72 h; relative to: dose): 5.8%
COc1cccc(OC)c1-c1cc(C(=O)NC2(C(=O)O)C3CC4CC(C3)CC2C4)nn1-c1ccc(C(=O)N(C)CCOCCOCCN(C)C(=O)[C@H](CCCCNC(=O)[C@H](CC(C)C)NC(=O)C2OC2C(=O)O)NC(=O)CN2CCN(CC(=O)[O-])CCN(CC(=O)[O-])CCN(CC(=O)[O-])CC2)cc1C(C)C.[177Lu+3] (mixture of isomers)  tumour-to-pancreas ratio (mouse HT-29 xenograft; 24 h, biodistribution; relative to: tumour over pancreas): 16.9
COc1ccc(Nc2nc(Nc3ccc(OCCOCCOCC[18F])cc3)ncc2Br)cc1  tissue uptake (ICR mice, S180 tumour-bearing, brain; intravenous, 370 kBq, 120 min): 2.57 ± 0.07 %ID/g
CCCCN1C(=O)c2cccc3c(NCCCCCCCCCCN4CCOCC4)ccc(c23)C1=O  emission maximum (toluene): 507 nm
COc1cccc(OC)c1-c1cc(C(=O)NC2(C(=O)O)C3CC4CC(C3)CC2C4)nn1-c1ccc(C(=O)N(C)CCOCCN(C)C(=O)[C@H](CCCCNC(=O)[C@H](CC(C)C)NC(=O)C2OC2C(=O)O)NC(=O)CN2CCN(CC(=O)[O-])CCN(CC(=O)[O-])CCN(CC(=O)[O-])CC2)cc1C(C)C.[177Lu+3] (mixture of isomers)  tumour-to-spleen ratio (mouse HT-29 xenograft; 168 h, biodistribution; relative to: tumour over spleen): 1.72
CCCCN1C(=O)c2cccc3c(NCCCCN4CCOCC4)ccc(c23)C1=O  fluorescence lifetime (DMSO): 10.4 ns
Cc1c(C(N)=O)cc(Cl)c2c1O[C@@](C)([C@H]1CC[C@H](N(C)C)CC1)O2  excretion (healthy men, urine; oral, 200 mg [14C]-valemetostat, 0 to 48 h; relative to: dose): 0.64%
CC[C@H](C)[C@@H]1NC(=O)[C@H](Cc2ccc(O)cc2)NC(=O)CCCSC[C@@H](C(=O)N(CC(=O)N[C@@H](CC(C)C)C(=O)NCC(N)=O)Cc2ccc(F)cc2)NC(=O)[C@H](CC(N)=O)NC(=O)[C@H](CCC(N)=O)NC1=O  adverse drug reactions (human; intranasal, 100 µg single dose): 0%
OC1(C(F)(F)F)CCN(c2nc(Nc3ccnc(C(F)(F)F)c3)nc(-c3cccc(C(F)(F)F)n3)n2)C1 (stereo not shown)  AUC(0-inf) (monkey; oral, 1 mg/kg): 6140 ± 725 ng·h/mL
O=c1c2ccccc2[se]n1CCCCCCn1[se]c2ccccc2c1=O  solubility (shake-flask, RP-HPLC; propylene glycol; 24 h, 25 °C): 1050 ± 20 µg/mL
CC(=O)N[C@H](CC(=O)O)C(=O)N[C@H](Cc1c[nH]c2ccccc12)C(=O)N[C@H](Cc1ccccc1)C(=O)N[C@H](CCCCN)C(=O)N[C@H](C)C(=O)N[C@H](Cc1ccccc1)C(=O)N[C@H](Cc1ccc(O)cc1)C(=O)N[C@H](CC(=O)O)C(=O)N[C@H](CCCCN)C(=O)N[C@@H](C(=O)N[C@H](C)C(=O)N[C@H](CCC(=O)O)C(=O)N[C@H](CCCCN)C(=O)N[C@H](Cc1ccccc1)C(=O)N[C@H](CCCCN)C(=O)N[C@H](CCC(=O)O)C(=O)N[C@H](C)C(=O)N[C@H](Cc1ccccc1)C(N)=O)C(C)C  AUC(0-t) (high-risk statin-treated men with CHD, plasma; oral, dose not given, median, doses pooled): 17.9 ng·h/mL
Cc1nc(N)nc2c1C(=O)N[C@@H](c1ccc(F)cc1-c1cccc(O[11CH3])n1)C2  SUV (ex vivo biodistribution; healthy mice, liver; 60 min post-injection, baseline, vehicle pre-treatment): 2.3 ± 0.2
CCCCN1C(=O)c2cccc3c(NCCCCCN4CCOCC4)ccc(c23)C1=O  fluorescence quantum yield (DMF): 0.66
O=C(Nc1cnccc1-c1ccc([18F])cc1)c1ccnc(NC(=O)C2CC2)c1  mean SUV (ex vivo gamma counting; FVB/NJ mice, both sexes, left kidney; intravenous, 120 min, together with: tariquidar 15 mg/kg iv): 0.93
CCCC[N+]1=c2cc3c4cc2[O][Mn-2]1(=[C]=O)(=[C]=O)(=[C]=O)[n+]1ccc(cc1)C(=O)Oc1ccccc1OC(=O)c1cc[n+](cc1)[Mn-2](=[C]=O)(=[C]=O)(=[C]=O)([O]3)[N+]=4CCCC  stability time without CO release (PBS with reduced myoglobin; pH 7.4, dark): ≥ 24 h
CCCC[C@H](NC(=O)CNC(=O)CNC(=O)[C@H](CCCCNC(=O)[C@H](CC(=O)O)NC(=O)C(C)c1ccc(CC(C)C)cc1)NC(=O)CN1CCN(CC(=O)O)CCN(CC(=O)O)CCN(CC(=O)O)CC1)C(=O)N[C@H]1CC(=O)NCCCC[C@@H](C(N)=O)NC(=O)[C@H](Cc2c[nH]c3ccccc23)NC(=O)[C@H](CCCNC(=N)N)NC(=O)[C@@H](Cc2ccccc2)NC(=O)[C@H](Cc2c[nH]cn2)NC1=O (stereo partly shown) [lutetium-177 labelled]  tumour-to-tissue ratio (C57 mice, tumour; 2 h; relative to: blood): 27.7
CS(=O)(=O)c1cc(Cl)cc(-c2cc(Cl)c(Cl)cc2Cl)c1Cl  dose fraction in milk fat (whole cow milk; 500 nM nominal): 86.5%
CCC(CC)CNC(=N)NC(=N)NCCCCCCNC(=N)NC(=N)NCC(CC)CC  hepatocyte CLint (metabolic stability; monkey, hepatocytes; 1 µM): 8.22 µL/min/10⁶ cells
CN(Cc1ccccc1)c1ncc(C=NOCc2ccc(-c3nc4cc(-c5ccccc5)ccn4c3Nc3ccc(C(=O)O)cc3)cc2)s1 (mixture of isomers)  inhibition (TDP1; enzyme activity, inhibitor; 100 µM, unpurified compound): 35.5%
CN[C@H](CC(C)C)C(=O)N[C@H]1C(=O)N[C@@H](CC(N)=O)C(=O)N[C@H]2CN[C@H]3C(=O)N[C@H](C(=O)N[C@H](C(=O)NCCCNC(=N)N)c4cc(O)cc(O)c4-c4cc3ccc4O)[C@H](O)c3ccc(c(Cl)c3)Oc3cc2cc(c3O[C@@H]2O[C@H](CO)[C@@H](O)[C@H](O)[C@H]2O[C@H]2C[C@](C)(NCc3ccc(-c4ccc(Cl)cc4)cc3)[C@H](O)[C@H](C)O2)Oc2ccc(cc2Cl)[C@H]1O  volume of distribution (mouse; intravenous, 10 mg/kg): 0.14 L/kg
COc1ccnc(C(=O)N[C@H]2COC(=O)[C@H](Cc3ccccc3)[C@@H](OC(=O)C(C)C)[C@H](C)OC2=O)c1O  Freundlich coefficient KF (soil adsorption; soil; pH 6.9, organic carbon 0.8 %): 220 mL/g
CC(C)(O)c1ncc([S@](N)(=O)=NC(=O)Nc2c3c(cc4c2CCC4)CCC3)s1  stability time (human plasma; room temperature): ≥ 24 h
CCCCN1C(=O)c2cccc3c(NCCN4CCOCC4)ccc(c23)C1=O  fluorescence lifetime (chloroform): 8.1 ns
CN(C)C(=O)c1cccc(N2Cc3cn(Cc4ccc(C#N)cc4)nc3C2)c1  half-life (metabolic stability; rat, liver microsomes): 1.93 h
COc1ccc(F)cc1C(=O)NCc1ccc(-c2nn([C@@H](C)C(F)(F)F)c(N)c2C(N)=O)cc1  hepatic metabolic clearance (human, plasma; intravenous, 22 µg): 1.33 L/h
